Assay results gathered from unrelated publications.
A part holds a random share of what one study measured. Changes are numbered by the printed parent chain.

Series 1 — method: universal PBM; molecule type: double-stranded DNA, one strand shown; medium: in vitro; tested at: 600 nM; direction: higher = stronger binding; measurement: E-score
Target: Sal-like protein 4, full length isoform A (SALL4, Homo sapiens, UniProt Q9UJQ4, residues 1-1053)
Sequence of UniProt Q9UJQ4 (whole entry, looked up): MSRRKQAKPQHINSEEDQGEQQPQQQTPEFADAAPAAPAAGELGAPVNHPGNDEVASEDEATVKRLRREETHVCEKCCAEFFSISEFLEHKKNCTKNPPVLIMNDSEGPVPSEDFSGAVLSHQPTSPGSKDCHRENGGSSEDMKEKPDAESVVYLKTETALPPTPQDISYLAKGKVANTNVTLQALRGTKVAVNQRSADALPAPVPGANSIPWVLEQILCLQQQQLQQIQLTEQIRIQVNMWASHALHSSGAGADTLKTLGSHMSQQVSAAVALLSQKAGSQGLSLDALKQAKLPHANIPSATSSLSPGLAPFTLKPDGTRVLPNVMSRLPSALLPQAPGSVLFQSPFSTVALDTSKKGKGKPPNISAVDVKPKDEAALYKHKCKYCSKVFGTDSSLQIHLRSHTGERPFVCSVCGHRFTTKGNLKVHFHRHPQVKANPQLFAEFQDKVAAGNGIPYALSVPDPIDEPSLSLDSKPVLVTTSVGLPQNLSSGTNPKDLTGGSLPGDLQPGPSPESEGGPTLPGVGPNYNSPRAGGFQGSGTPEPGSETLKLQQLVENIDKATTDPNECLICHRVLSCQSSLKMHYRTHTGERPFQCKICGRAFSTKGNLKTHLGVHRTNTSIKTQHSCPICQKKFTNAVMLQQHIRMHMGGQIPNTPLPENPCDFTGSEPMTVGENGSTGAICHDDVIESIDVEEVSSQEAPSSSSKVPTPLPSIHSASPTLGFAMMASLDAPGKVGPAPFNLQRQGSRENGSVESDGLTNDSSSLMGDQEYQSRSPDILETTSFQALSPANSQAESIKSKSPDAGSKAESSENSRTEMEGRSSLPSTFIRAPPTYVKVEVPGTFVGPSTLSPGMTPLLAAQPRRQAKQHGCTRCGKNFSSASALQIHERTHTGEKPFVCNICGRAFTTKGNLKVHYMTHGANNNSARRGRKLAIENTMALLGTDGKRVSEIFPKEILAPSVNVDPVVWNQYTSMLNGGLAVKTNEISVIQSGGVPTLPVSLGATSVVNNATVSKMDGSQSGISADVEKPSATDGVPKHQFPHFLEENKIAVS
Setting: 8-mer, flanks averaged, mean of replicates
CTCCCTTA: -0.0572
AGTCAGAT: 0.0925
ATAAGTCA: 0.261
AGTAGATA: 0.327
ATCCGCAT: 0.00333
AGGTACAT: 0.0872
GTCGAGAC: -0.0121
ACGGAATG: -0.057
ACGTTCCT: 0.153
ATCGGAGC: -0.261
TGACTCAA: 0.0278
CCCACAAC: -0.129
ATCCCTGA: -0.0728
AAATTACT: 0.342
CGACTTAA: 0.167
ATCATTGG: 0.171
AGGCGTGC: -0.156
GAGGAGCA: -0.18
CATCCTCA: -0.0657
ATCCATCG: -0.0471
CACAGGCA: -0.138
ATAGAGGA: 0.0385
CATGCGTA: 0.161
CTGGAGTA: 0.00515
GGTAAAGA: 0.115

Series 2 — target: CCND3, cyclin fold, Cln2 fusion (human); method: yeast growth competition, sequencing; medium: yeast; setting: weak parent motif; baseline: not given; direction: higher = stronger binding; measurement: normalised enrichment score
Starting sequence: MASTL docking peptide (human); PMIAKNLMCELDE
PMEAKNLMCELDE [I3E]: 0.105
PMIARNLMCELDE [K5R]: 0.0395
PMIAKWLMCELDE [N6W]: -0.15
PMIAKNLACELDE [M8A]: -0.000935
PMIAKNLQCELDE [M8Q]: -0.31
PNIAKNLMCELDE [M2N]: 0.108
PMDAKNLMCELDE [I3D]: -0.145
PMIAKNLRCELDE [M8R]: 0.0384
PFIAKNLMCELDE [M2F]: 0.164
PMGAKNLMCELDE [I3G]: 0.185
PPIAKNLMCELDE [M2P]: -0.105
PMISKNLMCELDE [A4S]: -0.222
PMIAKNLMCELIE [D12I]: -0.111
PMIAKNLVCELDE [M8V]: 0.192
PMIAKNLMCWLDE [E10W]: 0.0121
PQIAKNLMCELDE [M2Q]: 0.0353
PMIAKFLMCELDE [N6F]: -0.178
PMIAKGLMCELDE [N6G]: -0.0309

Series 3 — method: protein binding microarray; molecule type: double-stranded DNA, one strand shown; medium: in vitro; tested at: not given; baseline: not given; direction: higher = stronger binding; measurement: E-score
Target: Histone acetyltransferase KAT6A, winged helix 1, GST fusion (KAT6A, Homo sapiens, UniProt Q92794, residues 1-85)
Setting: 8-mer, flanks averaged, mean of 2 arrays, mostly near background
Construct (chain): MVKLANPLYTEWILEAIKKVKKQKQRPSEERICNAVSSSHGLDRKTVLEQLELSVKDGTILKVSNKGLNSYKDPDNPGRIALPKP
AAATCCGT: 0.0724
GAGTGATC: -0.138
ACCTCAGC: -0.0316
ACTCCCGA: 0.0102
GGCACAAC: -0.038
TAGGTGGA: -0.268
CATGAAAC: 0.0329
TCCCCTAA: -0.141
CCAAAAGA: -0.195
ACGCGGTA: 0.375
ATTAGTCA: -0.0558
GTTAACAA: 0.0286
TACTTATA: -0.0568
GCAGGCGC: 0.272
GCTTGTGA: -0.128
CCCTTCAC: -0.0258
ACATTCAG: -0.0426
AGCTCGAT: -0.178

Series 4 — method: competition protein-binding microarray; molecule type: double-stranded DNA, one strand shown; medium: in vitro; tested at: 2 µM; added: Cbf1 competitor, 0.05 µM; direction: higher = stronger binding; measurement: fluorescence intensity
Target: Phosphate system positive regulatory protein PHO4, full length, GST-tagged (PHO4, Saccharomyces cerevisiae, UniProt P07270, residues 1-312)
Setting: whole 60-bp probe, lowest competitor level
Construct (chain): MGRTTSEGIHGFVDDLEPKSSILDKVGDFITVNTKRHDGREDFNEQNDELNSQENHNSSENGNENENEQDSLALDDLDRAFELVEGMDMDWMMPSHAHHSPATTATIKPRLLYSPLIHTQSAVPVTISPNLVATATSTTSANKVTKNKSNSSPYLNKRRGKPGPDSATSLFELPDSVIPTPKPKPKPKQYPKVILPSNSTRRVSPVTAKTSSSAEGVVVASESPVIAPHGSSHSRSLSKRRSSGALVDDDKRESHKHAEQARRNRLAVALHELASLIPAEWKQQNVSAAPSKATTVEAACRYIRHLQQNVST
CATACCCAACCTTGTTGGGTGGGTGAAGATATTTGTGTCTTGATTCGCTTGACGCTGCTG: 3860 a.u.
GTCGTTATGGGAACAGACGTGATGGCTATCCTAGAAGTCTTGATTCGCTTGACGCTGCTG: 5210 a.u.
AAATTACTAAGTTTTCACGTGCAATACCCCGTATGAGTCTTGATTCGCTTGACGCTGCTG: 16300 a.u.
CTGTATGTGTGGCGTCACAAATTAGGGGACTCTGGCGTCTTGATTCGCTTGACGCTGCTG: 5720 a.u.
CTTTCCCGATCTTTTCACGTGGGCTTAGCACATTTGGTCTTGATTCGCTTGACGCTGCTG: 13800 a.u.
TTCACAAAATTGCCACTCGTGGTGATATGCTATGGAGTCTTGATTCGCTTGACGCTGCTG: 9430 a.u.
CATCGGCCCATTTGGCACACGCCAGTTAGTGAGGTTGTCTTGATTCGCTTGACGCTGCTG: 7090 a.u.
CGTCCTAGTGATTGTGCGGTGGGTGCCATGAGGAAGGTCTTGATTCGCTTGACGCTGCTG: 7010 a.u.
TGCAGTCTAAAAACACACGTGTAGGTTTTTTTCCGCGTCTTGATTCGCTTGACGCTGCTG: 15600 a.u.
CTAACGAAGGTTTTTCACGTGAGCTACAAGCCAAGTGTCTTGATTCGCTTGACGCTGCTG: 9930 a.u.
TTGATCCAAGAGCACTCTGTGACGAATTCTCCTCTAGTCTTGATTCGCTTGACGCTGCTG: 3940 a.u.
CTTTCCCGATCTTGAAGCGTGGGTGTAGCACATTTGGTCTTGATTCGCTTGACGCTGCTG: 8440 a.u.
CTTCTGTAAATTTTTCACGTGGAATGACGCGCCCCGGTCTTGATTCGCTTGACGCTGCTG: 12000 a.u.
CATACCCAACCTTGCAAAGTGGGTGAAGATATTTGTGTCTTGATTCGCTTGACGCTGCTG: 3320 a.u.
AAAGCGGTAATTTATCACGTGTTTTCACATATCTATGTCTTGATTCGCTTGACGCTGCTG: 16000 a.u.
GAAGGTGGTCCAACACACGTGATGGACCTAAACTCGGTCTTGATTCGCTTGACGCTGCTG: 13900 a.u.
CTAACGAAGGTTTGTCAAGTGGGTGACAAGCCAAGTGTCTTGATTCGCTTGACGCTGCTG: 3420 a.u.
TGATCATATCAGCTTGTTCATTGCTCTTATTTTTCTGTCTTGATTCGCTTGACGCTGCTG: 3300 a.u.
AAATTACTAAGTTGGGCAGTGGGTGACGCCGTATGAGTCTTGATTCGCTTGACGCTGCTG: 3660 a.u.

Series 5 — method: RNA Bind-n-Seq; molecule type: RNA; medium: in vitro; tested at: 365 nM; baseline: no-protein control; direction: higher = stronger binding; measurement: RBNS enrichment (R)
Target: RNA binding protein fox-1 homolog 2, RRM domain, GST-SBP tag (RBFOX2, Homo sapiens, UniProt O43251-10, residues 100-194)
Setting: natural RNA segment, single round, ends assumed
Target sequence (chain): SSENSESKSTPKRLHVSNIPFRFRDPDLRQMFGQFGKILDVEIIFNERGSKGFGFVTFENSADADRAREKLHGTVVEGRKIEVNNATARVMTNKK
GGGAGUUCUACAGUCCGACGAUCAGAUGGUAACGAUUCCGAUGAGUUCAUUGAGCUGAGCAACGGACCCUGGGAAGACAUGAAUGUGCAGACCAUUGCAGAGCUUUUGAUUUCAUCUAGGUUCUGAAUUACAGUGGAAUUCUCGGGUGCCAA: 0.793
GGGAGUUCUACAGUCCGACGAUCUAAUGUACUUAGGCAAGCCACUUCCCAUCUCUGGGCCUCGUCUUUCCUCCCUCUAAAAUCAAAGAGCUGAAUUAUGUGAUCCUUGAGGUCUCUUCCACUUAUAAUACCAAUGGAAUUCUCGGGUGCCAA: 0.29
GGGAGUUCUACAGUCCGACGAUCUUCUACCCACCUAAACCCCCCAAAAAAGACAAAACGAAAAGAAGCCACUUCAUCUUAUGUGCCGCUGCUUGUCUUCAGCCCAUUAGCCAGGUACUGAGCGUCAGGCUCUGUGGAAUUCUCGGGUGCCAA: 0.507
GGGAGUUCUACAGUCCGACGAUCUCCUUGCUGACCUCCUGUCUCCCUAGAGCACAAACAGGAGGGGGCAAGCCCCUUGAAGGUUUGGAUGGGAUGAGAUGGACAGUUACUGUAAUGAAGGACAAAGGGAACCAUGGAAUUCUCGGGUGCCAA: 1.19
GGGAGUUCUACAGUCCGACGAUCCCCAAGGAACCUCCUGGGAGGGGGCCUGCAUUCUAUGUUGGUGGGAAUGGGACUGGGCUGACGCCCUGCAUUCAGCCUGUGCCUUUCCUGGGGUUUCUUUUCUGUUCUUUUGGAAUUCUCGGGUGCCAA: 0.586
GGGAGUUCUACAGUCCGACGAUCGUCUGAAUUGAGUUUGUAUUUCUAGCACCCUGGGUUUUUACAUGUUUGCUCUUUUUGUUUUUGUUUGUCACCCCUCGAUAAAGAAAGUAUAUUCAUUUGUGUUGCUGGUUUGGAAUUCUCGGGUGCCAA: 6.57
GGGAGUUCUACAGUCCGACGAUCUGGAACUAUAAUUCAGCAUCUUUUACUGCAUUUAAAGAUGGGAGCAAACUUUUGUAUGGUUGGGAGAUGUGGCUGGAAAGUACUUUGGAAAAUAUACAAUCAAGAUAUUUUGGAAUUCUCGGGUGCCAA: 2.25
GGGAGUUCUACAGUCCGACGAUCCUUAUGUGUCUACUUGGAGAGAAAAGAAUGUCUUUGAACAAAAUGGCUAACUUUCACAAAACUGUCUUGCCUCUUUUAAACAUUACACUUGAUACGAGAAAUAUGGCUUAUGGAAUUCUCGGGUGCCAA: 0.406
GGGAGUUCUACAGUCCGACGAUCGGCUUUUGGCCCUUGGCCAGAAGUGCAUGCUUUUCCUGAGCAGAGCACUUAGCAACCUUCCCCUCUCACGGAGCUGCUGUCCUCCAGAUGGGUGCUAAUGGGAUUGGGCUUGGAAUUCUCGGGUGCCAA: 0.658
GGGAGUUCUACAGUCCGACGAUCUUAUAAACAUUUUUCAUUAUUGGAAAGUGUAACGGGGACCUUCUGCAUACCUGUUUAGAACCAAAACCACCAUGACACAGUUUUUAUAGUGUCUGUAUAUUUGUGAUGCAUGGAAUUCUCGGGUGCCAA: 0.629
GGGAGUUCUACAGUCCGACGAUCUUUUUAUUUGAAGUGCCAAAUUAACUUUAGUCAGAAUGUGAGCAGAUGGCUAAGUUCUCUCCUCCCCAGAAUGGAUUAACAGCUGCGUGGAAAGUGGGGGAGAGAGUGGAUGGAAUUCUCGGGUGCCAA: 2.28
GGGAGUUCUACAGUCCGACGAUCGUAGUUGUUUAACCAUCAUAUUUCUCUUUAAAGUACACAAAAUUCUUGGAUCUGGAAAGAUAACUCAACAGUCAAGAGUACUGGUUGUUCUUCCCCAAGGACCAAGGUUCUGGAAUUCUCGGGUGCCAA: 0.587

A few entries again (series 5):
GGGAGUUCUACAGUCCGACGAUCUGGAACUAUAAUUCAGCAUCUUUUACUGCAUUUAAAGAUGGGAGCAAACUUUUGUAUGGUUGGGAGAUGUGGCUGGAAAGUACUUUGGAAAAUAUACAAUCAAGAUAUUUUGGAAUUCUCGGGUGCCAA: 2.25
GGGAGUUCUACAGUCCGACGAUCCUUAUGUGUCUACUUGGAGAGAAAAGAAUGUCUUUGAACAAAAUGGCUAACUUUCACAAAACUGUCUUGCCUCUUUUAAACAUUACACUUGAUACGAGAAAUAUGGCUUAUGGAAUUCUCGGGUGCCAA: 0.406
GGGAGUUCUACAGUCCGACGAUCUUAUAAACAUUUUUCAUUAUUGGAAAGUGUAACGGGGACCUUCUGCAUACCUGUUUAGAACCAAAACCACCAUGACACAGUUUUUAUAGUGUCUGUAUAUUUGUGAUGCAUGGAAUUCUCGGGUGCCAA: 0.629
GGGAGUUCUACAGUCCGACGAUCGUCUGAAUUGAGUUUGUAUUUCUAGCACCCUGGGUUUUUACAUGUUUGCUCUUUUUGUUUUUGUUUGUCACCCCUCGAUAAAGAAAGUAUAUUCAUUUGUGUUGCUGGUUUGGAAUUCUCGGGUGCCAA: 6.57
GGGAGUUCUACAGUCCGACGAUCCCCAAGGAACCUCCUGGGAGGGGGCCUGCAUUCUAUGUUGGUGGGAAUGGGACUGGGCUGACGCCCUGCAUUCAGCCUGUGCCUUUCCUGGGGUUUCUUUUCUGUUCUUUUGGAAUUCUCGGGUGCCAA: 0.586
